Measurements pooled from the literature.
Lines come from different studies, so protocols differ. ± marks the error that the study gave.
Target: Cytochrome P450 2C19 (CYP2C19, Homo sapiens, UniProt P33261)
Chain of UniProt P33261 (whole entry, looked up): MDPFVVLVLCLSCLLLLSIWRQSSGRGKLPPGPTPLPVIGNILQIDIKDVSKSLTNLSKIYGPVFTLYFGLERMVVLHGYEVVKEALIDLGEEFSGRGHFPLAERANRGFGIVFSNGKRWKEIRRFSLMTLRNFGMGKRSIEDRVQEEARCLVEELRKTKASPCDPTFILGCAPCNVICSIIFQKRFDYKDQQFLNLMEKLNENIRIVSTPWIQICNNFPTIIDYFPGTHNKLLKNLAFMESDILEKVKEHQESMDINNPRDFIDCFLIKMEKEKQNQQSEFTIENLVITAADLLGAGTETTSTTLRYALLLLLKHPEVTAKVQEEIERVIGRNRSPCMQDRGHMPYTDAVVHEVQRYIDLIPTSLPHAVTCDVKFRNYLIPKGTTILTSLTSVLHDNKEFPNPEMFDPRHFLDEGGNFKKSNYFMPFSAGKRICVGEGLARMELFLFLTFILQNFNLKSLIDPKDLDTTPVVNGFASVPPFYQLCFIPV

Compound	test	test system	setting	how to read	quantity	value
COc1cc(O)c(CC=C(C)C)c2c1C(=O)CC(c1ccc(O)cc1)O2 (stereo not shown)	inhibitor	human liver microsomes	10 µM, pH 7.4, added: (S)-mephenytoin	–	inhibition	96.3 ± 1.5%
N#C[C@H](C[C@@H]1CCCNC1=O)NC(=O)[C@H](CC1CC1)NC(=O)c1cc2cccc(Cl)c2[nH]1	ISEF abundance scaling	–	2 µM, pH 7.4	–	fraction metabolised	< 1%
C=CC(=O)N(C)CCOc1c(N)ncnc1-c1cc(F)cc(NC(=O)c2ccc(C3CC3)cc2F)c1C	–	recombinant human CYP	pH 7.4, scaled to liver microsomes	–	relative unbound intrinsic clearance	4.8 µL/min/mg
COc1ccc2nc([S+]([O-])Cc3ncc(CO)c(OC)c3C)[nH]c2c1 (stereo not shown)	CYP2C19 inhibitor, measured: omeprazole	human, plasma	median, added: omeprazole	–	Tmax	4 h
CC(C)=CCc1c(O)cc2c(c1O)C(=O)C[C@@H](c1ccc(O)cc1)O2	–	–	1 µM, pH 7.4	–	inhibition	< 10%
C=CC(=O)Nc1cc(Nc2nccc(-c3cn(C)c4ccccc34)n2)c(OCC(F)(F)F)nc1N(C)CCN(C)C	substrate depletion	recombinant human CYP	1 µM	–	intrinsic clearance	0.3 µL/min/pmol
CC(C)=CCc1cc2c(cc1O)O[C@H](c1ccc(O)cc1)CC2=O	phase I metabolism, substrate	recombinant enzyme	pH 7.4	–	CLint	22.6 µL/min/mg
Cc1cc(C)c(CNC(=O)c2cc(Cl)c3c(c2C)O[C@@](C)([C@H]2CC[C@H](N(C)C)CC2)O3)c(=O)[nH]1	–	recombinant human CYP2C19	0 and 30 min	–	CLint	0.00136 µL/min/pmol
C[C@H]1CN(C2COC2)CCN1c1ccc(Nc2cc(-c3ccnc(N4CCn5c(cc6c5CC(C)(C)C6)C4=O)c3CO)cn(C)c2=O)nc1	substrate	recombinant enzyme	1 µM, 60 min	–	remaining compound	94.8 ± 8.4%
CC(C)=CCc1c(O)cc(O)c2c1O[C@H](c1ccc(O)cc1)CC2=O	–	–	10 µM, pH 7.4	–	inhibition	> 90%
COc1ccc2[nH]c([S+]([O-])Cc3ncc(C)c(OC)c3C)nc2c1 (stereo not shown)	measured: 5-hydroxyomeprazole	human healthy subjects, plasma	oral, alone, geometric mean, added: midazolam	–	half-life	0.9 h
CN(C(=O)n1cnc(-c2ccc[n+]([O-])c2)c1)C1CCCCC1	enzyme activity, inhibitor	pooled human liver microsomes	0.1 to 30 µg/mL	–	inhibition	no effect
COc1ccc2[nH]c([S+]([O-])Cc3ncc(C)c(OC)c3C)nc2c1 (stereo not shown)	–	human, plasma	oral, 20 mg, Day 1, added: single dose encorafenib and binimetinib	baseline: Day -7	geometric LS mean ratio of Cmax	1.32
Cc1cccc(F)c1N1CCC(N2Cc3cn(CC(C)(F)F)nc3N(Cc3ccccc3C(F)(F)F)C2=O)CC1	enzyme activity, inhibitor	–	added: (S)-mephenytoin 4'-hydroxylation	–	Ki	4.3 µM
COc1cc(O)c(CC=C(C)C)c(O)c1C(=O)/C=C/c1ccc(O)cc1	enzyme activity, inhibitor	human liver microsomes	10 µM, pH 7.4, added: (S)-mephenytoin	–	inhibition	15 ± 1.9%
COc1ccc2nc([S+]([O-])Cc3ncc(CO)c(OC)c3C)[nH]c2c1 (stereo not shown)	substrate	human, plasma	oral, 20 mg, day 1, cocktail with binimetinib and encorafenib	–	Cmax	90.4 ng/mL

A few entries again:
Compound	test	test system	setting	how to read	quantity	value
COc1ccc2[nH]c([S+]([O-])Cc3ncc(C)c(OC)c3C)nc2c1 (stereo not shown)	measured: 5-hydroxyomeprazole	human healthy subjects, plasma	oral, alone, geometric mean, added: midazolam	–	half-life	0.9 h
CN(C(=O)n1cnc(-c2ccc[n+]([O-])c2)c1)C1CCCCC1	enzyme activity, inhibitor	pooled human liver microsomes	0.1 to 30 µg/mL	–	inhibition	no effect
